Assay results from different studies.
Parts stem from different laboratories: compare values within a part only. Changes are numbered by the printed parent chain.

Study 1
Target: RING finger protein unkempt homolog, zinc fingers 1-6, GST-SBP tag (UNK, Homo sapiens, UniProt Q9C0B0, residues 30-357)
Method: RNA Bind-n-Seq
Form: RNA
Matrix: in vitro
Concentration: not given
Setting: RNA with constant flanks, human-mouse chimeric sites, ends assumed
Relative to: input RNA pool
Reading: higher = stronger binding
Construct (chain): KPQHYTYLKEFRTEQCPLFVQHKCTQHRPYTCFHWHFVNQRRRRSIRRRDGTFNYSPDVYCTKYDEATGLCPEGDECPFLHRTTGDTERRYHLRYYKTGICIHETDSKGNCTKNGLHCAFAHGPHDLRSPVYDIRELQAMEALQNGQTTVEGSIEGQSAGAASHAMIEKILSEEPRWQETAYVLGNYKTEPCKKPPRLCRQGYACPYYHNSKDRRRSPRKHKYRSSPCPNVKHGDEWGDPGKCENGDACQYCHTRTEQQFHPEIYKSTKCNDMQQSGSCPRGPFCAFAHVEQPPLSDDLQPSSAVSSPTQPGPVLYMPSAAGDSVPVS
Oligonucleotide	bound/input enrichment [ratio]
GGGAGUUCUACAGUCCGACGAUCGGUGGGGUGGUCAUUGCCGUUUGAGCUGCUGAUUUUCAUGAGUCGCCUUCAAAACUCUCGUGUAGGGUUGACACUGUGGGGGGGUGGGGGAUCCAGCUAUUUUUUUUAUUUUCAAGUCCACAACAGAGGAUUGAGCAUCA	1.81
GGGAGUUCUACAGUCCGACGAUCUAAGUUAUUUUGUACAGCUUUGUAAAUUCUUAACAUUUUUAUAUUGCACAUUUUAUGUUGUUUGGGUAAUUUGGUUCAUUAAGUACAUAGCUAAGGUAAUGAACAUCUUUUUCAGUAAUUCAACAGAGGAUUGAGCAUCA	0.893
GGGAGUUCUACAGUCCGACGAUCUGUGCAUUAUGAUGCUUAGAUGGUUUUUGCAAAAGCAGAAAUCGCUGCAAGGUAAUCACAAUAGAUAAAAGUGGUAUUUUAAACCUUUGAAAUAAAUGGAUGUAACUGUACGUUGGUACACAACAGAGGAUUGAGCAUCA	1
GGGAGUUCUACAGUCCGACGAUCCGGAGCCCUCCUCUCCCACAGGCCCAAGAUGUGACCCACCAGUGCCUUUUGUCUUCCUGUCAGCUCUAAUCAAUCAUCCUGUCCUCUCACGCCCACACCAAGUGCCCAAAGUGGGGAGGGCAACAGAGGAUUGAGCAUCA	0.325
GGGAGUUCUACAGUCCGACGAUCUUCCCAACCUCCCGCCUCACCCCACCCCCGCUUUUUGGAAAGUUUUUGGCGUUUCUUUUCCUUCCCCAUACAAAGUGAUUACAGUUUCCCCCGCAAGUGGGGCUUGAAGGGCUUGACGGACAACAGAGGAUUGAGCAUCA	0.556
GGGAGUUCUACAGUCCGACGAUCCGCUGGCGUUGAACUGUGGACUCUGAUGGCCUCCAUCUCUCAGGCACGUUUGCCUUCUCUUAGUCCCUGUUUUCGGGAUGUUAUGAAUCUCAGUACUGUGGUUUGAAAGCACCAGCUUUGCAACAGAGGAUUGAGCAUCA	0.249
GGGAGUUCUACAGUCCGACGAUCCGCUUGGAUGAGGCUGGUGUCACAGAUGAAGUGCUGGAUUCUGCCAUGCAAGCCUUCCUUCUGGAGGUCAUUGUUAAACAUGGGGAGCCGGCACCUUAUUUAUGUAACAAAGAUCCGUUUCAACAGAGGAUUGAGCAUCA	0.0958
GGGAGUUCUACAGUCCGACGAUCCGGAAGUUCUUGAUUUAGUGGCUGGGCCUUUUCUUUCUUUCCUUUAGGAAAAGCCUAAAGAUUAGGUUGUAAGAAAAACAGAAGCCAUGUUUCGAAGACCUGUGUUACAGGUAUUUCGUCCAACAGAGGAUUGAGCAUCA	0.201
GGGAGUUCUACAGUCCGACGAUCAGGAGGAGGUUAAAGGGUGAGAGUGGGAUGGAGGAUUGUGUCAUGGCUCUGGAGACACUGUUCAGUGUCCUGCUUUCUCUGUGCAGACUUAUGGCUCCUUACACGCCCUUUCUGACUGAGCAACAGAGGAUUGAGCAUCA	0.139
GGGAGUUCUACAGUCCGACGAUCCAUGUAUCUGCAGUACUUGAUGUGGAUUACUCUCCCACUGGGAAGGAAUUUGUGUCUGCCAGCUUUGAUAAGUCUAUUAGAAUCUUUCCUGUGGACAAGAGCCGAAGCAGGGAAGUGUAUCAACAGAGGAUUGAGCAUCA	0.471
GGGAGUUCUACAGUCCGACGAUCCGGAGCCCUCCUCUCCCACAGGCCCAAGAUAUAACCCACCAGUGCCUUUUGUCUUCCUGUCAGCUCUGUCAAUCACGCCUGUCCUCUGUCCCUCUCACCAAGUGCCCAAAGUGGGGAGGGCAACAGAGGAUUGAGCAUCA	0.722

Study 2
Target: CREB3L1, bZIP domain (human)
Method: DHFR protein complementation
Matrix: yeast
Setting: single substitutions, most at no-binding floor
Relative to: wild-type JUN-FOS pair
Reading: higher = stronger binding
Starting sequence: JUN, bZIP domain (human); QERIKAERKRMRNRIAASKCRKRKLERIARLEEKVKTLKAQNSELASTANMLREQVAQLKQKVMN; partner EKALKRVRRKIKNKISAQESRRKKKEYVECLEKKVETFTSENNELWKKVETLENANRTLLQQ
Variant	binding fitness
S43Y	-1.18 natural log
L31R	-1.44 natural log
T48Y	-1.2 natural log
A29V	-1.37 natural log
K34V	-1.32 natural log
S43I	-1.32 natural log
M51L	-1.35 natural log
R53S	-1.44 natural log
Q55G	-1.43 natural log
V35Y	-1.72 natural log
T48A	-1.33 natural log
A40C	-1.17 natural log
T37K	-1.43 natural log

Study 3
Target: CCNF, cyclin fold, Cln2 fusion (human)
Method: yeast growth competition, sequencing
Matrix: yeast
Setting: strong parent motif
Relative to: not given
Reading: higher = stronger binding
Starting sequence: E2F3 docking peptide (human); PPAKRRLELGESG
Variant	normalised enrichment score
PPAKRRLEAGESG [L9A]	0.997
PPAKRRLEFGESG [L9F]	7.62
PPAKRRLALGESG [E8A]	5.73
PPAKRRAELGESG [L7A]	0.822
PPAKRRLELGASG [E11A]	6.76
PPAKRRLELGEAG [S12A]	7.25
PPAARRLELGESG [K4A]	5.27

Single results of other studies
Molecule	target	test	system	setting	scale	measurement	result
PhoQ, residues 284 288 289 292 302 303 SSTLSG	PhoP, residues 12 14 15 18 19 SYFRT (Escherichia coli, UniProt P23836)	Sort-seq, measured: YFP reporter	E. coli	PhoQ-PhoP variant library, together with: 10 µM Mg2+	relative to: high Mg2+ state, higher = stronger signaling	fold induction	9.95

Repeated from above (study 1):
Oligonucleotide	bound/input enrichment [ratio]
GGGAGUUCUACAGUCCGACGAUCUGUGCAUUAUGAUGCUUAGAUGGUUUUUGCAAAAGCAGAAAUCGCUGCAAGGUAAUCACAAUAGAUAAAAGUGGUAUUUUAAACCUUUGAAAUAAAUGGAUGUAACUGUACGUUGGUACACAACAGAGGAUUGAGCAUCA	1
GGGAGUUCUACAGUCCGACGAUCCGGAGCCCUCCUCUCCCACAGGCCCAAGAUGUGACCCACCAGUGCCUUUUGUCUUCCUGUCAGCUCUAAUCAAUCAUCCUGUCCUCUCACGCCCACACCAAGUGCCCAAAGUGGGGAGGGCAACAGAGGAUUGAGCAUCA	0.325
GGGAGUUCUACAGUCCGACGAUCUUCCCAACCUCCCGCCUCACCCCACCCCCGCUUUUUGGAAAGUUUUUGGCGUUUCUUUUCCUUCCCCAUACAAAGUGAUUACAGUUUCCCCCGCAAGUGGGGCUUGAAGGGCUUGACGGACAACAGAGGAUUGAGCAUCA	0.556
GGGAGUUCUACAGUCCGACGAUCCGCUGGCGUUGAACUGUGGACUCUGAUGGCCUCCAUCUCUCAGGCACGUUUGCCUUCUCUUAGUCCCUGUUUUCGGGAUGUUAUGAAUCUCAGUACUGUGGUUUGAAAGCACCAGCUUUGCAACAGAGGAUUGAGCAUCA	0.249
